Published values pooled from the literature.
Numbers after ± are the reported error.

Cc1cc2ncc(-c3ccc(OC(C)(C)C)cc3)n2cc1-c1ccc(OC(C)C)cc1  EC50 (vesicular stomatitis virus; viral entry, inhibitor; pseudotyped with Junin virus glycoprotein): ≤ 0.004 µM
oseltamivir carboxylate  EC50 (Influenza A virus H3N2; MTS): 9.7 µM
CC(CN(C)C)CN1c2ccccc2Sc2ccccc21 (stereo not drawn)  EC50 (SARS-CoV-2; viral replication, GFP plate reader screen; cell-based): 17.4 µM
Cn1cnc(Cn2c(=O)[nH]/c(=N\c3cc4cn(C)nc4cc3Cl)n(Cc3cc(F)c(F)cc3F)c2=O)n1  EC50 (transmissible gastroenteritis virus; viral replication, qRT-PCR; ST): ~50 µM
O=C(N1CCC2(CC1)CC(CNS(=O)(=O)CCCCCl)CCO2)C1(c2ccccc2)CCCC1 (stereo not drawn)  EC50 (Venezuelan equine encephalitis virus; viral replication): 10 µM
O=c1nc(NO)ccn1[C@@H]1O[C@H](CO)[C@@H](O)[C@H]1O  EC50 (SARS-CoV-2 Washington strain; viral replication, qRT-PCR; Calu-3): 0.4 ± 0.3 µM
O=C(N1CCC2(CC1)C[C@H](CN1CCCCS1(=O)=O)CCO2)C1(c2ccccc2)CCCC1  EC50 (Powassan virus; viral replication): > 32 µM
O=C(Nc1ccc(N2CCC3(CCC3)CC2)c(C(F)(F)F)c1)c1ccc(C(=O)N2C[C@@H]3C[C@H]2CO3)nc1  EC50 (Marburg virus Angola; viral replication; wild type): 1.33 ± 0.16 µM
CCN(CC)CCCC(C)Nc1ccnc2cc(Cl)ccc12 (stereo not drawn)  EC50 (Feline infectious peritonitis virus; viral replication, visual scoring; 48 h): 27.9 µM
CCCCCCCCCCCCCCCCOCCCOP(=O)(O)CO[C@H](CO)Cn1ccc(N)nc1=O  EC50 (Monkeypox virus; viral replication; Vero): 0.87 ± 0.1 µM
O=C1c2c(O)c(=O)ccn2N([C@@H]2c3ccccc3SCc3c2ccc(F)c3F)[C@@H]2COCCN12  EC50 (Influenza A virus H5N1; viral replication, plaque reduction; A/duck/Bangladesh/31028/2016): 0.00017 ± 2e-05 µM
O=C(NN1C(=O)C2C3C=CC(C4CC34)C2C1=O)c1ccc(C(F)(F)F)cc1 (stereo not drawn)  EC50 (Monkeypox virus; viral replication; HEL 299): 0.0028 ± 0.0015 µM
CC(C)C(=O)NCC1CCOC2(CCN(C(=O)C3(c4ccccc4)CCCC3)CC2)C1 (stereo not drawn)  EC50 (Venezuelan equine encephalitis virus; viral replication): 20 µM
C=CCNC1=C2C[C@@H](C)C[C@H](OC)[C@H](O)[C@@H](C)/C=C(\C)[C@H](OC(N)=O)[C@@H](OC)/C=C\C=C(/C)C(=O)NC(=CC1=O)C2=O  EC50 (influenza A virus; viral replication; A/swine/OH/511445/2007 (H1N1)): > 10 µM
Cc1cc2ncn(-c3ccc(OC(C)C)cc3)c2cc1-c1ccc(OC(C)C)cc1  EC50 (vesicular stomatitis virus; viral entry, inhibitor; pseudotyped with Lassa virus glycoprotein): ≤ 0.004 µM
O=C(Nc1ccc(N2CCOCC2)cc1)c1cc2occc2n1Cc1ccc(Cl)cc1  EC50 (Marburg virus; pseudovirus entry; A549): > 100 µM
CC(C)Oc1ccc(-c2ccn3cnc(-c4ccc(OC(C)C)cc4)c3c2)cc1  EC50 (vesicular stomatitis virus; viral entry, inhibitor; pseudotyped with Junin virus glycoprotein): > 0.02 µM
OC(CCCN1CCc2c(c3cc(F)ccc3n2-c2ccc(F)cc2)C1)c1ccc(F)cc1 (stereo not drawn)  EC50 (SARS-CoV-2; viral replication, GFP plate reader screen; cell-based): 4.68 µM
NC(=O)c1nc(F)c[nH]c1=O  EC50 (Mammarenavirus juninense; viral replication, refers to: JUNV; HEK-293T): 10 µM
CC(C)Oc1ccc(-c2ccc3cnc(-c4ccc(OC(C)C)cc4)n3c2)cc1  EC50 (vesicular stomatitis virus; viral entry, inhibitor; pseudotyped with Machupo virus glycoprotein): > 0.02 µM
C#Cc1c(C(N)=O)ncn1[C@@H]1O[C@H](CO)[C@@H](O)[C@H]1O  EC50 (Junin virus; viral replication, inhibitor; Vero, Candid #1): 1.9 ± 1.2 µM
CO[C@H]1CC[C@H](n2c([C@@H]3CCCC(=O)N3c3ccc(F)c(F)c3)nc3cc(-c4c(C)noc4C)ccc32)CC1 (relative stereo)  EC50 (SARS-CoV-2; viral replication, high-content imaging screen; BetaCov/Belgium/GHB-03021/2020; cell-based): > 100 µM
CN(C)CCNC(=O)c1cc2occc2n1C  EC50 (Marburg virus; pseudovirus entry; A549): > 100 µM
NC(=O)c1nc(F)c[nH]c1=O  EC50 (Tacaribe virus; viral replication; Vero; 120 h): 13.5 µM
CN(C)S(=O)(=O)NCC1CCOC2(CCN(C(=O)C3(c4ccccc4Cl)CCCC3)CC2)C1 (stereo not drawn)  EC50 (Venezuelan equine encephalitis virus; viral replication): 2 µM
CN(C)CC/C=C1\c2ccccc2CSc2ccccc21  EC50 (SARS-CoV-2; viral replication, high-content imaging screen; cell-based): > 25.1 µM
CC(C)[C@H](NC(=O)[C@H](CCCNC(=N)N)NC(=O)N[C@@H](Cc1ccccc1)C(=O)O)C(=O)N[C@H](C=O)CCCNC(=N)N  EC50 (SARS-CoV-2 Omicron BA.2; pseudovirus infection; 48 h): 1.11 µM
COc1cc(C(=O)OCCCN2CCCN(CCCOC(=O)c3cc(OC)c(OC)c(OC)c3)CC2)cc(OC)c1OC  EC50 (SARS-CoV-2; viral replication, high-content imaging screen; cell-based): > 100 µM
COc1ccc2cc1Oc1ccc(cc1)C[C@H]1c3c(cc4c(c3Oc3cc5c(cc3OC)CCN(C)[C@@H]5C2)OCO4)CCN1C  EC50 (Severe acute respiratory syndrome coronavirus; pseudoparticle entry; Vero C1008; 48 h): 1.92 µM
CC(C)(C)NC(=O)NCC1CCOC2(CCN(C(=O)C3(c4ccccc4)CCCC3)CC2)C1 (stereo not drawn)  EC50 (Venezuelan equine encephalitis virus; viral replication): > 39.8 µM
COc1ccc2nc3cc(Cl)ccc3c(Nc3cc(CN4CCCC4)c(O)c(CN4CCCC4)c3)c2n1  EC50 (Zaire ebolavirus; viral replication; HeLa; 24 h): 1.14 µM
O=C(N1CCC2(CC1)CC(Oc1ccccn1)CCO2)C1(c2ccccc2)CCCC1 (stereo not drawn)  EC50 (Venezuelan equine encephalitis virus; viral replication): > 39.8 µM
Nc1ccn(C[C@@H](CO)OCP(=O)(O)O)c(=O)n1  EC50 (vaccinia virus; viral replication; HEL): 22 µM
Cc1cccc(C)c1OCC(=O)N[C@@H](Cc1ccccc1)[C@@H](O)C[C@H](Cc1ccccc1)NC(=O)[C@H](C(C)C)N1CCCNC1=O  EC50 (SARS coronavirus; FRhK-4; 72 h): 4 to 8 µg/mL
Cc1ccc(-c2nc3c(nc2-c2ccc(C)cc2)N(CCCCCCC(=O)O)CCC3)cc1  EC50 (SARS-CoV-2; viral replication, GFP plate reader screen; BetaCov/Belgium/GHB-03021/2020; cell-based): 17.4 µM
O=c1ccn([C@H]2[C@H](O)[C@H](O)[C@@H](CO)[C@@H]2F)c(=O)[nH]1  EC50 (MERS-CoV; viral replication; Vero): > 100 µM
CCCCCCN(CC1CCOC2(CCN(C(=O)C3(c4ccccc4)CCCC3)CC2)C1)S(C)(=O)=O (stereo not drawn)  EC50 (Venezuelan equine encephalitis virus; viral replication): 10 µM
O=c1ccn([C@@H]2O[C@](F)(CO)[C@@H](O)[C@H]2O)c(=O)[nH]1  EC50 (Mammarenavirus machupoense; viral replication; HeLa): 0.28 µM
CS(=O)(=O)NCC1CCOC2(CCN(C(=O)C3(c4ccccc4)CCCCC3)CC2)C1 (stereo not drawn)  EC50 (Venezuelan equine encephalitis virus; viral replication): > 39.8 µM
Nc1ncnc2c([C@@H]3N[C@H](CO)[C@@H](O)[C@H]3O)c[nH]c12  EC50 (Junin virus; viral replication, inhibitor; Vero, Candid #1): > 100 µM
CO[C@H]1/C=C/O[C@@]2(C)Oc3c(C)c(O)c4c(O)c(c(/C=N/N5CCN(C6CCCC6)CC5)c(O)c4c3C2=O)NC(=O)/C(C)=C\C=C\[C@H](C)[C@H](O)[C@@H](C)[C@@H](O)[C@@H](C)[C@H](OC(C)=O)[C@@H]1C  EC50 (Yellow fever virus; viral replication; BHK-21): 0.13 µM
N#Cc1c(Nc2ccc(F)cc2)n[nH]c1NS(=O)(=O)c1ccc2ccccc2c1  EC50 (Western equine encephalitis virus; viral replication; Vero 76, California): > 6.8 µM
O=c1ccn([C@@H]2O[C@H](CO)[C@@H](O)[C@H]2O)c(=S)[nH]1  EC50 (yellow fever virus; viral replication; BHK-21): 2.9 µM
N#Cc1ccc2c(c1)N(CCCN1CCC(O)CC1)c1ccccc1S2  EC50 (SARS-CoV-2; viral replication, high-content imaging screen; cell-based): > 100 µM
NC(=O)c1ncn([C@@H]2O[C@H](CO)[C@@H](O)[C@H]2O)n1  EC50 (Lyssavirus rabies; viral replication, refers to: RABV; BHK-21): 16 µM
O=C(N1CCC2(CC1)CC(CN1CCCCS1(=O)=O)CCO2)C1(c2ccc(F)cc2)CCCC1 (stereo not drawn)  EC50 (Venezuelan equine encephalitis virus; viral replication): > 39.8 µM
O=C(NC1CN2CCC1CC2)c1cc(Cl)cc2c1OC1CCCCC21 (stereo not drawn)  EC50 (SARS-CoV-2; viral replication, GFP plate reader screen; BetaCov/Belgium/GHB-03021/2020; cell-based): 7.94 µM
Cc1cc2nnn(-c3ccc(OC(C)C)cc3)c2cc1-c1ccc(OC(C)C)cc1  EC50 (vesicular stomatitis virus; viral entry, inhibitor; pseudotyped with Junin virus glycoprotein): ≤ 0.004 µM

A few entries again:
O=C1c2c(O)c(=O)ccn2N([C@@H]2c3ccccc3SCc3c2ccc(F)c3F)[C@@H]2COCCN12  EC50 (Influenza A virus H5N1; viral replication, plaque reduction; A/duck/Bangladesh/31028/2016): 0.00017 ± 2e-05 µM
O=C(NN1C(=O)C2C3C=CC(C4CC34)C2C1=O)c1ccc(C(F)(F)F)cc1 (stereo not drawn)  EC50 (Monkeypox virus; viral replication; HEL 299): 0.0028 ± 0.0015 µM
CC(C)C(=O)NCC1CCOC2(CCN(C(=O)C3(c4ccccc4)CCCC3)CC2)C1 (stereo not drawn)  EC50 (Venezuelan equine encephalitis virus; viral replication): 20 µM
C=CCNC1=C2C[C@@H](C)C[C@H](OC)[C@H](O)[C@@H](C)/C=C(\C)[C@H](OC(N)=O)[C@@H](OC)/C=C\C=C(/C)C(=O)NC(=CC1=O)C2=O  EC50 (influenza A virus; viral replication; A/swine/OH/511445/2007 (H1N1)): > 10 µM
Cc1cc2ncn(-c3ccc(OC(C)C)cc3)c2cc1-c1ccc(OC(C)C)cc1  EC50 (vesicular stomatitis virus; viral entry, inhibitor; pseudotyped with Lassa virus glycoprotein): ≤ 0.004 µM
O=C(Nc1ccc(N2CCOCC2)cc1)c1cc2occc2n1Cc1ccc(Cl)cc1  EC50 (Marburg virus; pseudovirus entry; A549): > 100 µM
